Results pooled from the literature.
Each numbered part is a random draw from the data of one study; scales do not carry over between parts. Values joined by “and” are separate records of one study, mostly repeats; a detail may differ.
UniProt Q14164, sequence (whole entry, looked up): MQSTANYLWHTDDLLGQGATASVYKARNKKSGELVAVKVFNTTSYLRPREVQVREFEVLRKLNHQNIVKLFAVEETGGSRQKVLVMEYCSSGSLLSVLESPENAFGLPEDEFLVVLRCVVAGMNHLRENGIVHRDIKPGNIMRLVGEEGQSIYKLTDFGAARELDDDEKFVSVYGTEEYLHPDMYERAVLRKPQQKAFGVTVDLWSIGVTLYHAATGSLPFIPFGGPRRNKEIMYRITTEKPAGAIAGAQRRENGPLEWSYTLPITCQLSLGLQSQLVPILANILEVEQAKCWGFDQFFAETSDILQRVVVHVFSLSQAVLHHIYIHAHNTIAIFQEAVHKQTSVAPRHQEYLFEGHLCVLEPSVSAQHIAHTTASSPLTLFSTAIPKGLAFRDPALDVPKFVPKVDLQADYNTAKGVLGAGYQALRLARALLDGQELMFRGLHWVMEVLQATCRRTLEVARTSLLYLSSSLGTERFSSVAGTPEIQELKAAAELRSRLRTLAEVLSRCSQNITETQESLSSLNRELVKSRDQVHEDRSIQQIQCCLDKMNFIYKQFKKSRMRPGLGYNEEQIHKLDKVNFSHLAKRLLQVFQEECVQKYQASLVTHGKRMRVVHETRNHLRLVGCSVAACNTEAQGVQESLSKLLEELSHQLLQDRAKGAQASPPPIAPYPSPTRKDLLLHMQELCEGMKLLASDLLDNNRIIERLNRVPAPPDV
UniProt P10721, sequence (whole entry, unmodified, looked up): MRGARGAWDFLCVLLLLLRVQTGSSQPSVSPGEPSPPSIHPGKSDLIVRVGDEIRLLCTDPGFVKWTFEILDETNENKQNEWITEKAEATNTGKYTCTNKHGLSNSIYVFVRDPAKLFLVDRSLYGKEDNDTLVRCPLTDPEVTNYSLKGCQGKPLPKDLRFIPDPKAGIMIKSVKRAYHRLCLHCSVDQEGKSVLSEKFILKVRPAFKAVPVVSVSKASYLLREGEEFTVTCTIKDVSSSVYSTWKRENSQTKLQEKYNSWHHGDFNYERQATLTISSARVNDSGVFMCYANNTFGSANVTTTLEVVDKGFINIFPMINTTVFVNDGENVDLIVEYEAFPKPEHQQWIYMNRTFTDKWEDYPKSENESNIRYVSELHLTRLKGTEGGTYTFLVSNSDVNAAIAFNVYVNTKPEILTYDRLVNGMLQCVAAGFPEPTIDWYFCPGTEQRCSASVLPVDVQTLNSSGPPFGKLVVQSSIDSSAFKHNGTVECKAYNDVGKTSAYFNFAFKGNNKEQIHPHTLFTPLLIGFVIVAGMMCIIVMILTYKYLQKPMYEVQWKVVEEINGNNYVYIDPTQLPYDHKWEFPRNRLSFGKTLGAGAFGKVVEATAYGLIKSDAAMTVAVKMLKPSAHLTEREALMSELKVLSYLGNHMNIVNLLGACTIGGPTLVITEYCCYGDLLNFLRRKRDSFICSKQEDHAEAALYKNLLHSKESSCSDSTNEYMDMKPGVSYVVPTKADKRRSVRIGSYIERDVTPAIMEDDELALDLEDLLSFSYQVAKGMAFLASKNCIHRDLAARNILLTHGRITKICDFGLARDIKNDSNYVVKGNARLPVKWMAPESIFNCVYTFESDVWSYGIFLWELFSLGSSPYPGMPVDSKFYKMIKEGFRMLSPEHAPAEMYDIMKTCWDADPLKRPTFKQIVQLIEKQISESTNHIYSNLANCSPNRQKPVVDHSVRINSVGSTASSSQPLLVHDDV
UniProt O14965, sequence (whole entry, looked up): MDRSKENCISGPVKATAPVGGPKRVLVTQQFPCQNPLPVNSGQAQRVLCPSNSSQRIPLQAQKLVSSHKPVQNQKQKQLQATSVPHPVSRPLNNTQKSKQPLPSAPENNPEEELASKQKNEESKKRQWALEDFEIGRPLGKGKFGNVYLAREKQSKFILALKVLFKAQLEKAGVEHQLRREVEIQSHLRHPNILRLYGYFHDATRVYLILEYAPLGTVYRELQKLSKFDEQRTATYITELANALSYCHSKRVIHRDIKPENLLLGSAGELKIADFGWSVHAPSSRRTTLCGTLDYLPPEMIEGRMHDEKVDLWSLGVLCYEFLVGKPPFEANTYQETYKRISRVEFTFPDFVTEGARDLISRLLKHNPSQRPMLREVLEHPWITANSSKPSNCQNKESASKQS
UniProt Q9HC98, sequence (whole entry, looked up): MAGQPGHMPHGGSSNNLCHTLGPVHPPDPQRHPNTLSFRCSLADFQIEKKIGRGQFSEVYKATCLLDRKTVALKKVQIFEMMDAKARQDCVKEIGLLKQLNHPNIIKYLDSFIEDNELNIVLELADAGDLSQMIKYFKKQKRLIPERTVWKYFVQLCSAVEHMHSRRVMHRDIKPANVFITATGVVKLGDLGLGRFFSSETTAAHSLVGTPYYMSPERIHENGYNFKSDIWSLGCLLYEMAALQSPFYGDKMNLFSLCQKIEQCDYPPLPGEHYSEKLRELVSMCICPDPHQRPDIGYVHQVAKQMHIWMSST
UniProt P19525, sequence (whole entry, looked up): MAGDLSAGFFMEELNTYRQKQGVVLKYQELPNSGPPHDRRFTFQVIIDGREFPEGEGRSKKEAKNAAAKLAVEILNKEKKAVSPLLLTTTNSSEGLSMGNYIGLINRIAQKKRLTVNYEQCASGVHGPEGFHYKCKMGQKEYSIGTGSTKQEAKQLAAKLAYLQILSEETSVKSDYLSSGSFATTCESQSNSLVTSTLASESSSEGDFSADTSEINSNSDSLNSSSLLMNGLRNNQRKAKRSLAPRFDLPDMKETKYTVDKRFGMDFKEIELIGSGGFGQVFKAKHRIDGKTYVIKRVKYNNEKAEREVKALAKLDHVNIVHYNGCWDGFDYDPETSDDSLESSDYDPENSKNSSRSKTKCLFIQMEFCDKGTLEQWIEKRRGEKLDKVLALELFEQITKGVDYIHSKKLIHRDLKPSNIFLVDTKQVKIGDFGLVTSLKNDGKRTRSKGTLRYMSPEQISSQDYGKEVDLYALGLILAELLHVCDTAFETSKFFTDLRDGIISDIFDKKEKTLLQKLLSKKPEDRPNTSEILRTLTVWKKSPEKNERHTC
UniProt P06239, sequence (whole entry, looked up): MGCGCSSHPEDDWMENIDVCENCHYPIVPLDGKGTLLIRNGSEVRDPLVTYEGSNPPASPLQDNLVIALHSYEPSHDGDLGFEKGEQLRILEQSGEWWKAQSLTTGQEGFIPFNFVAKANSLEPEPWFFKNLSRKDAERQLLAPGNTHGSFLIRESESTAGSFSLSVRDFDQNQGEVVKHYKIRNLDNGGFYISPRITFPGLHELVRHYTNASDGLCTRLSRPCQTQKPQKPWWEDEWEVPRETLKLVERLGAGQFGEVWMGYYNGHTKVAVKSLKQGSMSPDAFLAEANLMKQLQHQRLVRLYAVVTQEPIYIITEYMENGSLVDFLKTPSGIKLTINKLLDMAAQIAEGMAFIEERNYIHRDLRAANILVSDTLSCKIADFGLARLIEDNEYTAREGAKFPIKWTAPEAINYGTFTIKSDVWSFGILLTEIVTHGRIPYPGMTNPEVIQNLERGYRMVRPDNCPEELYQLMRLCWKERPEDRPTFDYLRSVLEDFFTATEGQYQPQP
UniProt O00238, sequence (whole entry, looked up): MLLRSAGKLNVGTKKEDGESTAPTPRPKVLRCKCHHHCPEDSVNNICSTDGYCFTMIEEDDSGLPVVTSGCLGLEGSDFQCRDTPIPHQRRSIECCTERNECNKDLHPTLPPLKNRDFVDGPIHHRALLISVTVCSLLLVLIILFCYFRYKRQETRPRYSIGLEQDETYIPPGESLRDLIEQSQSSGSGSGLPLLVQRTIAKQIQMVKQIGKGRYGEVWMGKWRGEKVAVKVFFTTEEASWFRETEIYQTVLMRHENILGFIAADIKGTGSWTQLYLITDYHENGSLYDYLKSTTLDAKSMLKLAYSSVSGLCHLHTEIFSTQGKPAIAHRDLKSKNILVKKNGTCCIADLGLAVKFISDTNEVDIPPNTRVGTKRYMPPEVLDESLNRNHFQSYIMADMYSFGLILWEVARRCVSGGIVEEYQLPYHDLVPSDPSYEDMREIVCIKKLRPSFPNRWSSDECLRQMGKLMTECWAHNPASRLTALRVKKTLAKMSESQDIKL
UniProt Q9BWU1, sequence (whole entry, looked up): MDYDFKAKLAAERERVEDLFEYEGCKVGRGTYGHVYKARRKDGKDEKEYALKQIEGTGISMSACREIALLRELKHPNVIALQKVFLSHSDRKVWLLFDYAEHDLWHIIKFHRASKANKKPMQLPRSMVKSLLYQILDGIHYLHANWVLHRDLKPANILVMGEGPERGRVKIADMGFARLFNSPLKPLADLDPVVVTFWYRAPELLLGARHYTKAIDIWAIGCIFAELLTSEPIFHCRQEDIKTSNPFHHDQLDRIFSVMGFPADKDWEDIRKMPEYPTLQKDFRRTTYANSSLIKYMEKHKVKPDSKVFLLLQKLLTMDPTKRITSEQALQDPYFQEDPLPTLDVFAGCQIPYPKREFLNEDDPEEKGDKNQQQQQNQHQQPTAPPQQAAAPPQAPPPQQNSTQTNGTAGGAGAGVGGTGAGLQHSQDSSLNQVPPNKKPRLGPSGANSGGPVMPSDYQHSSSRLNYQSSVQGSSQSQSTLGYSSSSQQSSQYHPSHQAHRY

Study 1
SMILES: CO[C@@H](C)c1c(Nc2ccc([C@@H](N(C)C(=O)C3CCS(=O)(=O)CC3)C(F)(F)F)cc2)cnc2cc(Cl)nn12
Tested at: 1 µM
Measurement: remaining binding
Serine/threonine-protein kinase 35 (STK35, Homo sapiens, UniProt Q8TDR2); cell-free assay, competition with immobilised ligand: 90%
Serine/threonine-protein kinase SBK1 (SBK1, Homo sapiens, UniProt Q52WX2); cell-free assay, competition with immobilised ligand: 100%
Serine/threonine-protein kinase Nek6 (NEK6, Homo sapiens, UniProt Q9HC98); cell-free assay, competition with immobilised ligand: 100%
Dual specificity mitogen-activated protein kinase kinase 7 (MAP2K7, Homo sapiens, UniProt O14733); cell-free assay, competition with immobilised ligand: 100%
Aurora kinase A (AURKA, Homo sapiens, UniProt O14965); cell-free assay, competition with immobilised ligand: 100%
Serine/threonine-protein kinase SIK1 (SIK1, Homo sapiens, UniProt P57059); competition binding: 85%
Bone morphogenetic protein receptor type-1B (BMPR1B, Homo sapiens, UniProt O00238); cell-free assay, competition with immobilised ligand: 100%
ALK tyrosine kinase receptor (ALK, Homo sapiens, UniProt Q9UM73); cell-free assay, competition with immobilised ligand: 100%
Inhibitor of nuclear factor kappa-B kinase subunit epsilon (IKBKE, Homo sapiens, UniProt Q14164); cell-free assay, competition with immobilised ligand: 100%
Epidermal growth factor receptor (EGFR, Homo sapiens, UniProt P00533, L858R); cell-free assay, competition with immobilised ligand: 87%
Mast/stem cell growth factor receptor Kit (KIT, Homo sapiens, UniProt P10721, A829P); cell-free assay, competition with immobilised ligand: 100%
Tyrosine-protein kinase Lck (LCK, Homo sapiens, UniProt P06239); cell-free assay, competition with immobilised ligand: 84%
Proto-oncogene tyrosine-protein kinase receptor Ret (RET, Homo sapiens, UniProt P07949, M918T); cell-free assay, competition with immobilised ligand: 85%
Interferon-induced, double-stranded RNA-activated protein kinase (EIF2AK2, Homo sapiens, UniProt P19525); cell-free assay, competition with immobilised ligand: 88%
Cyclin-dependent kinase 19 (CDK19, Homo sapiens, UniProt Q9BWU1); competition binding: 81%

Study 2
Target: Beta-1 adrenergic receptor (ADRB1, Homo sapiens, UniProt P08588)
UniProt P08588, sequence (whole entry, looked up): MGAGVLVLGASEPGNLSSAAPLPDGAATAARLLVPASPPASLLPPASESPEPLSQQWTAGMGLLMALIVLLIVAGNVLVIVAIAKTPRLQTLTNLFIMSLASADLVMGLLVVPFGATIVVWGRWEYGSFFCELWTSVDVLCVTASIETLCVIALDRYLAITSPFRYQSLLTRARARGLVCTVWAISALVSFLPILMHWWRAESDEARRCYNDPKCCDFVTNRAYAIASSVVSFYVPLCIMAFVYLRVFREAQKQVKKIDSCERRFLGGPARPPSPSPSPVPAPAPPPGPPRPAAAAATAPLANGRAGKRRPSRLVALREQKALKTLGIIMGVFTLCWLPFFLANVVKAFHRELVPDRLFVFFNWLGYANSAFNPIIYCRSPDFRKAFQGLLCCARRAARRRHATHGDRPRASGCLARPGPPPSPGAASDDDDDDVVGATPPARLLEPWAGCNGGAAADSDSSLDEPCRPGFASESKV
Mode: agonist
Measurement: EC50
COc1ccccc1N1CCN(CC(=O)Nc2ccc(C(N)=O)cc2)CC1: ≥ 100 µM
COc1ccccc1N1CCN([S+](=O)([O-])c2cc(C)c(C)cc2OC)CC1: ≥ 100 µM
COc1ccccc1N1CCN(C(=O)c2cc(Br)c[nH]2)CC1: ≥ 100 µM
Cc1cc(-c2ccccc2)nc2ccccc12: ≥ 100 µM

Study 3
Cell line: mouse MPNST tumor cells
Method: high-content nuclear imaging
Measured: cell number
Tested at: 10 µM
Time: 12 h
Setting: mean of 2 replicates
Baseline: plate mean
Direction: higher = more cells
Measurement: nuclei count
CCn1cc(-c2cccc(C(F)(F)F)c2)c2sc(C(=N)NC3CCS(=O)(=O)CC3)cc2c1=O: 2.2 z-score and 0.66 z-score
COc1cc2ncnc(Nc3ccc(F)c(Cl)c3)c2cc1OCCCN1CCOCC1: 0.311 z-score and -4.95 z-score and -3.19 z-score
Cc1cnc(-c2cnc(NCCNc3ccc(C#N)cn3)nc2-c2ccc(Cl)cc2Cl)[nH]1: -0.467 z-score
O=P(O)(O)C(O)(Cc1cccnc1)P(=O)(O)O: 1.09 z-score
CC(C)(N)C(=O)N[C@H](COCc1ccccc1)C(=O)N1CCC2(CC1)CN(S(C)(=O)=O)c1ccccc12: 0.706 z-score

Study 4
Species: human
Medium: microsomes or S9
Tested at: 2 µM
Time: 0.5 h
Measurement: remaining compound
COc1cc(=O)[nH]cc1C(=O)NCC(C)N1CCCCC1=O (centres unmarked): 90.3%
O=C(N1CCn2c1nc1ccccc12)C1(c2cccs2)CCCC1: 0.383%
Cc1n[nH]c(O)c1C(c1ccc(F)cc1)c1c(C)n[nH]c1O: > 99.9%
CCCN(CCC)c1nc(N)nc(-c2noc(C)n2)n1: 35.7%
CCC(c1nc2c3c(C)c(C)n(-c4cc(C)ccn4)c3ncn2n1)N1C(=O)c2ccccc2C1=O (centres unmarked): 60.9%
c1ccc(C(c2ccccc2)c2n[nH]c3c2CNCC3)cc1: 99.8%

Single results of other studies
CC[C@H](C)c1nc2cc(Nc3ccnc4ccc(S(=O)(=O)C(C)C)cc34)ccc2s1 — EC50 (HT-29; necroptosis; together with: TNF-α, Smac mimetic, z-VAD): 4.06 µM
CC(C)n1cnc(-c2ccc(F)cc2)c1-c1ncc(C(=O)Nc2ccc(N3CCN(C)CC3)cc2)[nH]1 — patients with hypophosphataemia (phase 2a trial; idiopathic pulmonary fibrosis patients; 60 mg once daily, grade 2 emergent event): 0%

Excerpt of the above (study 4):
COc1cc(=O)[nH]cc1C(=O)NCC(C)N1CCCCC1=O (centres unmarked): 90.3%
O=C(N1CCn2c1nc1ccccc12)C1(c2cccs2)CCCC1: 0.383%
Cc1n[nH]c(O)c1C(c1ccc(F)cc1)c1c(C)n[nH]c1O: > 99.9%
CCCN(CCC)c1nc(N)nc(-c2noc(C)n2)n1: 35.7%
